Measurements from different studies.
Every numbered part comes from another study and shows a few of its results, in no order.

Sample 1
Target: Sal-like protein 4, full length isoform A (SALL4, Homo sapiens, UniProt Q9UJQ4, residues 1-1053)
Chain of UniProt Q9UJQ4 (whole entry, looked up): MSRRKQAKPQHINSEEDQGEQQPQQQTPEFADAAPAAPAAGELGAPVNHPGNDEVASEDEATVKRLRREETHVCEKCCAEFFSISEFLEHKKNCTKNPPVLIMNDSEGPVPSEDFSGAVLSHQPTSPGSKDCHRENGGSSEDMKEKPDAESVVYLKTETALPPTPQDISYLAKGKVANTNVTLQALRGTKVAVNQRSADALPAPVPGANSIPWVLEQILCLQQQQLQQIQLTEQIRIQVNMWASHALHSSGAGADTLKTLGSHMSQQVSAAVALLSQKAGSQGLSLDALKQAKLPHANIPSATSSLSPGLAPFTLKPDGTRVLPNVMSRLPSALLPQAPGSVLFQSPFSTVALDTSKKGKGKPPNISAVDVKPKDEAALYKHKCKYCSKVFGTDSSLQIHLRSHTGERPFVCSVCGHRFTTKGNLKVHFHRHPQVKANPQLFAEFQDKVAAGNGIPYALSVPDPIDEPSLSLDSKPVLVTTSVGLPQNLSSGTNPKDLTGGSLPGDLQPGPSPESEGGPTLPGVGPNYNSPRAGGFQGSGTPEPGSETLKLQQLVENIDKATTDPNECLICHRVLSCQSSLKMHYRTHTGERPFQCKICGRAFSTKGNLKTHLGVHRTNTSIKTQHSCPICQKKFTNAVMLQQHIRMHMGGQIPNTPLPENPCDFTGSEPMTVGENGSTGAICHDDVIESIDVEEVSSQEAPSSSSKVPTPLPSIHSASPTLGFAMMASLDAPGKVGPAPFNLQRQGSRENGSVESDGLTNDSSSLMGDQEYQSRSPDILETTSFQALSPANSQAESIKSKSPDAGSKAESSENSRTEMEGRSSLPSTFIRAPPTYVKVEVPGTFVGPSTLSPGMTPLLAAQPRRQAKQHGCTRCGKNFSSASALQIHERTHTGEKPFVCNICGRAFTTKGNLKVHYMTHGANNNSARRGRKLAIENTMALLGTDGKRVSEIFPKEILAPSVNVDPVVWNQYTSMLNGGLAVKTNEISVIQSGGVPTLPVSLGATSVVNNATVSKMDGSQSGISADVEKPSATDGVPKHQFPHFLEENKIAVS
Technique: universal PBM
Form: double-stranded DNA, one strand shown
Sample: in vitro
Tested at: 600 nM
Setting: 8-mer, flanks averaged, mean of replicates
Direction: higher = stronger binding
Sequence	E-score
CAAACCGA	-0.113
CGTTCACC	-0.213
ACCTCGAA	0.0426
ACAACGAC	-0.0238
ACATGGGG	-0.145
ACAGGTGG	-0.168
AGCGGTAA	0.036
GAAGCAAA	0.158
ATCCCGGC	-0.215
AGACCAGC	-0.343

Sample 2
Target: Interferon regulatory factor 7, full length, phosphomimetic (IRF7, Homo sapiens, UniProt Q92985, residues 1-503, S101K/S471D/S472D/S475D/S476D/S477D/S483D/S484D/S487D)
Technique: protein-binding microarray
Form: double-stranded DNA, one strand shown
Sample: in vitro
Tested at: 250 nM
Setting: 60-bp whole probe
Together with: salmon DNA 0.4 mg/ml
Relative to: random background probes
Direction: higher = stronger binding
All sequences stand within: GCCTAGCAC … GTCTTGATTCGCTTGACGCTGCTG
Residues (chain): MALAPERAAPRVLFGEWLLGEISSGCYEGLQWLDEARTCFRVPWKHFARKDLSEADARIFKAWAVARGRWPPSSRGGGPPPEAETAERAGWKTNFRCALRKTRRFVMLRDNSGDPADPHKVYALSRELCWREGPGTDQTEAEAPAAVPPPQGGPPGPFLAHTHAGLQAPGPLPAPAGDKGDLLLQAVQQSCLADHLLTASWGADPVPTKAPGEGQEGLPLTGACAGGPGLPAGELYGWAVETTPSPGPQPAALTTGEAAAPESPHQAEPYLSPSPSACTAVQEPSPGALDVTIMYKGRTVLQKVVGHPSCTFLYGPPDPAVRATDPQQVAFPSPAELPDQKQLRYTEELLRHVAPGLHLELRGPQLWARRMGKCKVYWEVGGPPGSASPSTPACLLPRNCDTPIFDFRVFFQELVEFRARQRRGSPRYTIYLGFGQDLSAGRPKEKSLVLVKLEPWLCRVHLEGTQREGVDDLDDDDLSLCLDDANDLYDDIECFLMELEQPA
Sequence	log fluorescence
GACGGTATACTACTGCTGACGTGCTAG	-0.448 z-score
ACATTTTTTTCATTATTGTTGTGCTAG	0.932 z-score
TCAAATTCCTGAAATCTCACTGTGCTA	0.186 z-score
GGATTGCAACCCCTCAAAAAGTGCTAG	1.09 z-score
GACGTTCTCGGTTTCGGGACGTGCTAG	5.77 z-score
GACGATTTCAGACTGGAGACGTGCTAG	0.109 z-score
TCAATTCTCCACTTGTGACTGTGCTAG	1.3 z-score
ATAGATATCGGGTATCGATTAGTGCTA	0.626 z-score
TTAGGACTTGGTATCGGTTAGTGCTAG	1.72 z-score

Sample 3
Target: Histone acetyltransferase KAT6A, winged helix 1, GST fusion (KAT6A, Homo sapiens, UniProt Q92794, residues 1-85)
Technique: protein binding microarray
Form: double-stranded DNA, one strand shown
Sample: in vitro
Tested at: not given
Setting: 8-mer, flanks averaged, mean of 2 arrays, mostly near background
Relative to: not given
Direction: higher = stronger binding
Construct (chain): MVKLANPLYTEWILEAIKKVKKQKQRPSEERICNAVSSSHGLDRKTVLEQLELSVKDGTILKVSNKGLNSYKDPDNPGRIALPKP
Sequence	E-score
AAAAGAAT	-0.0564
CCAGAAAG	-0.163
CGCTTCAC	0.162
GGCAGACC	0.187
CAAGGGCA	-0.146
CGAATACC	0.0466

Other studies, line by line
Molecule	target	test	test system	setting	how to read	measurement	value
PhoQ, residues 284 288 289 292 302 303 SSCCRF	PhoP, residues 12 14 15 18 19 STHWV (Escherichia coli, UniProt P23836)	Sort-seq, refers to: YFP reporter	E. coli	PhoQ-PhoP variant library, together with: 10 µM Mg2+	relative to: high Mg2+ state, higher = stronger signaling	fold induction	13.5

For quick reference, copied from above (sample 2):
Sequence	log fluorescence
TCAAATTCCTGAAATCTCACTGTGCTA	0.186 z-score
GGATTGCAACCCCTCAAAAAGTGCTAG	1.09 z-score
